Results gathered from unrelated publications.
± gives the spread as reported.
DGKZ: Diacylglycerol kinase zeta (DGKZ, Homo sapiens, UniProt Q13574)
Gria2/Glutamate receptor 3: Gria2/Glutamate receptor 3 (Rattus norvegicus, UniProt P19491+P19492)
Sequence of UniProt P19491 (whole entry, looked up): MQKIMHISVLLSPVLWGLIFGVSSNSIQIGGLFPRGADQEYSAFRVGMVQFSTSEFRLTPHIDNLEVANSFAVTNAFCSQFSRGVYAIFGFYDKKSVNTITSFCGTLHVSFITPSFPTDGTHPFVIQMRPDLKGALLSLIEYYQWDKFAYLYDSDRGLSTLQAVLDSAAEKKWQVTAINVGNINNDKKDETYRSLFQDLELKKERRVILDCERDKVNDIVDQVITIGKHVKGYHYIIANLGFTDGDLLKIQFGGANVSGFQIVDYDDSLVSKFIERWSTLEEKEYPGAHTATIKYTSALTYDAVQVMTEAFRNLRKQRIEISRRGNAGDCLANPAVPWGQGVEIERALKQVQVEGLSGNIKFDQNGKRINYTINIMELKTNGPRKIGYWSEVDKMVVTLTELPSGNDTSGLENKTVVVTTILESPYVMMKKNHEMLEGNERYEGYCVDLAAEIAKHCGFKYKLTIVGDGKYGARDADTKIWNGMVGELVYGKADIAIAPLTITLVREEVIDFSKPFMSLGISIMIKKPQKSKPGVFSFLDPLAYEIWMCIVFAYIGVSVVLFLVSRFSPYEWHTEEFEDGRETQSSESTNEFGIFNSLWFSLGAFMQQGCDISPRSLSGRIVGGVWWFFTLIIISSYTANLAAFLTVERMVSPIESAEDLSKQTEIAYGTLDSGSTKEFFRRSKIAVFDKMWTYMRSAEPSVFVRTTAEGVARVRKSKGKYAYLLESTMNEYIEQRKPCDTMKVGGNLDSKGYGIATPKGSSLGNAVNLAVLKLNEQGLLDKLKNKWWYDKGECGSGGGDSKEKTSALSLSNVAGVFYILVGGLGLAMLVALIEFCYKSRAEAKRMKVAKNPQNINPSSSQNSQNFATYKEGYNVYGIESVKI
Sequence of UniProt P19492 (whole entry, looked up): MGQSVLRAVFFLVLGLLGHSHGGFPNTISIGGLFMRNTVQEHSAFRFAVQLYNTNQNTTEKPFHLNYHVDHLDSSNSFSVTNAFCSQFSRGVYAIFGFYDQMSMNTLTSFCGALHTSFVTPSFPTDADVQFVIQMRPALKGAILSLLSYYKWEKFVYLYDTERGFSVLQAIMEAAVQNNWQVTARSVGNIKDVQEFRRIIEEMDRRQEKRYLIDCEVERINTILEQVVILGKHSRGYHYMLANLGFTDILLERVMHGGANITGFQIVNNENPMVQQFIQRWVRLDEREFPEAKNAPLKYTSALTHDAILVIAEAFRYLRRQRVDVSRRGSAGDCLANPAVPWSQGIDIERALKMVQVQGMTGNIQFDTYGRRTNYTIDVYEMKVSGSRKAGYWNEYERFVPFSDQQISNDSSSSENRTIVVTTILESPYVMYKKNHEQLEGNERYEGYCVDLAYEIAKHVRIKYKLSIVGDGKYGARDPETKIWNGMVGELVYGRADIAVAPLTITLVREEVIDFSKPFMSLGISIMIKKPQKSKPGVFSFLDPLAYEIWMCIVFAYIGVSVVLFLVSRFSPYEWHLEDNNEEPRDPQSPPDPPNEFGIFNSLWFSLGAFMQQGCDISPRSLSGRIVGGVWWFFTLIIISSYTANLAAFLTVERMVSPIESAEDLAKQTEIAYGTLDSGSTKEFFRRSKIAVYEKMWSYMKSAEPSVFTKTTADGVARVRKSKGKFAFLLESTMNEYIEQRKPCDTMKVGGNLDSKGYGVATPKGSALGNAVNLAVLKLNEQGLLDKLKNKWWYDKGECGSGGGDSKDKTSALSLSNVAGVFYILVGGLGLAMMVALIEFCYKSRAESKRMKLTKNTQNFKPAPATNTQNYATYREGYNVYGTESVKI
Sequence of UniProt P11229 (whole entry, looked up): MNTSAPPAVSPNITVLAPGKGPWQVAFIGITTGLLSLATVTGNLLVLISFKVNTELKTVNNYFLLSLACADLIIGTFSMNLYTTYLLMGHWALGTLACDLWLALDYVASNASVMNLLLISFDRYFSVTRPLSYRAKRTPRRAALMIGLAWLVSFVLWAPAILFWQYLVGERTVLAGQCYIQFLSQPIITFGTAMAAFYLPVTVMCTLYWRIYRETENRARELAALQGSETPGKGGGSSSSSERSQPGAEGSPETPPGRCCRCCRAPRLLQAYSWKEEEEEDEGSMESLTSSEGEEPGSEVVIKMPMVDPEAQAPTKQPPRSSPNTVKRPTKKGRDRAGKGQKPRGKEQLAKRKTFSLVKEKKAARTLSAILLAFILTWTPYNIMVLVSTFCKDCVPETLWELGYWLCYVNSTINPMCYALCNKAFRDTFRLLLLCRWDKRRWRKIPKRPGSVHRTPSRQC
Sequence of UniProt P48729 (whole entry, looked up): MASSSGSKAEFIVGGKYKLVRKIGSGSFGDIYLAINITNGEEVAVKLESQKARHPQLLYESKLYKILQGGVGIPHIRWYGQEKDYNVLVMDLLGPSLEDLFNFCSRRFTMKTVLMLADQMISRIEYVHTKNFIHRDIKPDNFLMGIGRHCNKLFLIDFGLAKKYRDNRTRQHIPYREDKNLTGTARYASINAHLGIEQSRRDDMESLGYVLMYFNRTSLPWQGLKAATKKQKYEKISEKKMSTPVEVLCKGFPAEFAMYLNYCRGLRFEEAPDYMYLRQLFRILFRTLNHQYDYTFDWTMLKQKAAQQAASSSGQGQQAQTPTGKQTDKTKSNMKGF
Sequence of UniProt P50391 (whole entry, looked up): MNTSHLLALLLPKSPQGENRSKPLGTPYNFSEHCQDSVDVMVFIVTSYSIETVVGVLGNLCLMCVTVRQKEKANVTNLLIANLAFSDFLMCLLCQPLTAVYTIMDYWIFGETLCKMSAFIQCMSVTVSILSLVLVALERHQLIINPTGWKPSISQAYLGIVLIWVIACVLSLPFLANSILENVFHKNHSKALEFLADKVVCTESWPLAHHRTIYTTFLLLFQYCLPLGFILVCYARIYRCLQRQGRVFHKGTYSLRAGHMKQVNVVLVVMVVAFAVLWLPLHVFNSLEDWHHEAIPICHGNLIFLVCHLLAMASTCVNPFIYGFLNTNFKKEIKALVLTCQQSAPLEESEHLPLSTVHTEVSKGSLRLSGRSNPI
Sequence of UniProt B2RXH2 (whole entry, looked up): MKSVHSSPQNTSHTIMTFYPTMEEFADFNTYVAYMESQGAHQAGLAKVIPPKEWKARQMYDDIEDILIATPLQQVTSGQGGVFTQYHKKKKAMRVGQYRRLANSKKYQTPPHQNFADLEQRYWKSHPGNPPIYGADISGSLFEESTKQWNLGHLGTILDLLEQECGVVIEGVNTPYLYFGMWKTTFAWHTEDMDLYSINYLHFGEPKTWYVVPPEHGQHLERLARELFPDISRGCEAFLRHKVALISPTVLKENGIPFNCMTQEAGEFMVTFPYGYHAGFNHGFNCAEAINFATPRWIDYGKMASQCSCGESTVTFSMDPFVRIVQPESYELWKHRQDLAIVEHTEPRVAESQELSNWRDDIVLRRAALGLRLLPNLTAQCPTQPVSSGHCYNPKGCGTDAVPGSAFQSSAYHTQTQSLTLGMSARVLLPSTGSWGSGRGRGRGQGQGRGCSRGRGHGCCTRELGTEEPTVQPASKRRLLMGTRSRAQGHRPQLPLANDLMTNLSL
Sequence of UniProt P35346 (whole entry, unmodified, looked up): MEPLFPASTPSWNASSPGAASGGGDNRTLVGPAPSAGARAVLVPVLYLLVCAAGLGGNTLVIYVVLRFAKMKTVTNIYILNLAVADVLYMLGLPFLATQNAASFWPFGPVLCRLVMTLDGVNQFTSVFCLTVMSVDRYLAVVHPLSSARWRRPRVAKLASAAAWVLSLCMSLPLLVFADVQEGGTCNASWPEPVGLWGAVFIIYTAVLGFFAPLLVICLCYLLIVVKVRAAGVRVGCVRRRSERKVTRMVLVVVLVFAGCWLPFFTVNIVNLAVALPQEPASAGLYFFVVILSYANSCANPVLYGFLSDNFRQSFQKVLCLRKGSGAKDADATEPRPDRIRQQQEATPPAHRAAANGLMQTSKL

| SMILES | tested on | test | test system | conditions | quantity | result |
| --- | --- | --- | --- | --- | --- | --- |
| C[C@@H]1CN(c2cc(=O)n(C)c3ccc(C#N)nc23)[C@@H](C)CN1Cc1ccc(S(=O)(=O)n2cnc(C3CC3)n2)cc1 | DGKZ | inhibitor, ADP-Glo |  | added: DAG micelles | IC50 | 1.44 µM |
| Cc1ccc(Nc2cc(NC3CC3)n3ncc(C#N)c3n2)cc1NC(=O)C1CC1 | Casein kinase II subunit alpha (CSNK2A1, Homo sapiens, UniProt P68400) | inhibitor |  |  | IC50 | 0.15 µM |
| CC(C)[C@@H](NC(=O)C(=O)O)C(=O)O | Lysine-specific demethylase 4E (KDM4E, Homo sapiens, UniProt B2RXH2) | enzyme activity, inhibitor |  |  | IC50 | > 1000 µM |
| O=S(=O)(c1ccc(-c2ccc3ncnc(Nc4ccc(OCc5ccc(C(F)(F)F)c(F)c5)c(Cl)c4)c3c2)cc1)N1CCOCC1 | Leishmania major | intracellular amastigote growth, luciferase | RAW264.7 macrophages |  | EC50 | 2.5 µM |
| O=C(CCNC(=O)CNC(=O)CC(c1ccccc1)(c1ccccc1)c1ccccc1)NC[C@H]1CCCN(C(=O)c2ccc(F)cc2)C1 | Muscarinic acetylcholine receptor M1 (CHRM1, Homo sapiens, UniProt P11229) | ligand displacement, radioligand |  | cell membranes | IC50 | > 30 µM |
| CC(C)C[C@H](NC(=O)N(CCCNC(=N)N)NC(=O)[C@H](Cc1ccc(O)cc1)NC(=O)CCCCCCC(=O)N[C@@H](Cc1ccc(O)cc1)C(=O)NN(CCCNC(=N)N)C(=O)N[C@@H](CC(C)C)C(=O)N[C@@H](CCCNC(=N)N)C(=O)N[C@@H](Cc1ccc(O)cc1)C(N)=O)C(=O)N[C@@H](CCCNC(=N)N)C(=O)N[C@@H](Cc1ccc(O)cc1)C(N)=O | Neuropeptide Y receptor type 4 (NPY4R, Homo sapiens, UniProt P50391) | calcium signal, antagonist |  |  | Kb | 0.118 µM |
| C=C(NC(=O)c1csc(-c2nc3c(cc2O)-c2nc(cs2)C(=O)NC(C(C)O)C(=O)NC(=C(C)OC)c2nc(cs2)C(=O)NC2c4nc(cs4)C(=O)NC(COC(=O)c4c5c6c(cccc6n4O)COC(=O)C(OC4CC(C)(O)C(N(C)C)C(C)O4)C2OC5)c2nc-3cs2)n1)C(N)=O (stereo not shown) | Solute carrier organic anion transporter family member 1B3 (SLCO1B3, Homo sapiens, UniProt Q9NPD5) | transporter uptake, inhibitor | HEK293 | 10 min, pH 7.4 | IC50 | 1.01 µM |
| CCOc1cc(CN2CC3(CC(N4CCC(C(=O)O)CC4)=NO3)C2)cc(OCC)c1-c1ccc(F)cc1 | Somatostatin receptor type 5 (SSTR5, Homo sapiens, UniProt P35346, Q123A) | cAMP level, antagonist, GloSensor | AD293 | Q123A mutant, bandwidth 3.36, added: CST17 EC80 and forskolin | IC50 | 5.75 µM |
| C[C@@H](Nc1nc2c(cnn2C(C)(C)C)c(=O)n1Cc1cccc(F)c1)c1ccc(Cl)cc1 | High affinity cGMP-specific 3',5'-cyclic phosphodiesterase 9A (PDE9A, Homo sapiens, UniProt O76083) | enzyme activity, inhibitor |  |  | IC50 | > 10 µM |
| O=S(=O)(c1cccc(-c2ccc3ncnc(Nc4ccc(OCc5cccc(F)c5)c(Cl)c4)c3c2)c1)N1CCCCC1 | Leishmania major | intracellular amastigote growth, luciferase | RAW264.7 macrophages |  | EC50 | > 15 µM |
| COc1ccc(CNC(=O)c2cnc3c(c(C)nn3C)c2Cl)cc1 | Malate dehydrogenase, mitochondrial (MDH2, Sus scrofa, UniProt P00346) | enzyme activity, reporter counter-screen |  | native enzyme | IC50 | > 63 µM |
| Cc1nn(-c2cccc(N)c2)c(=O)c2cnc(Nc3ccc(N4CCNCC4)cc3)nc12 | Casein kinase I isoform alpha (CSNK1A1, Homo sapiens, UniProt P48729) | enzyme activity, inhibitor |  |  | IC50 | > 10 µM |
| C#CCCn1nc(C)c2c(Cl)c(C(=O)NCC3CC(Br)=NO3)cnc21 (stereo not shown) | 60 kDa heat shock protein, mitochondrial, with HSP10 (Homo sapiens, UniProt P10809) | HSP60/10-mediated MDH refolding |  | 30 min, preincubation before ATP, added: denatured malate dehydrogenase | IC50 | 28 µM |
| Cc1oc(C)c(-c2ccc(N(CC(C)C)C3CCCCC3)c(NC(=O)NC34CC5CC(CC(C5)C3)C4)c2)c1C(=O)O | Indoleamine 2,3-dioxygenase 1 (IDO1, Homo sapiens, UniProt P14902) | enzyme activity, inhibitor, recombinant enzyme, refers to: kynurenine |  | 20 min, 2% DMSO, added: L-tryptophan | IC50 | 27 ± 4 µM |
| Fc1ccc(Nc2nc(NC3CCCCC3)c3cc(Br)ccc3n2)cc1F | Beta-2 adrenergic receptor (ADRB2, Homo sapiens, UniProt P07550, I159A) | β-arrestin2 recruitment, antagonist, BRET | HEK293 | mutant I159A, added: isoprenaline 1 µM | IC50 | 0.158 µM |
| O=C(O)Cc1cc2c(cc1C(=O)c1ccccc1Br)OCO2 | Gria2/Glutamate receptor 3 | ion current, antagonist, patch clamp |  |  | IC50 | 4.57 µM |
| Cc1ccc(-c2nn(-c3ccc(S(C)(=O)=O)cc3)cc2/C=N/N=C2/NC(=O)CS2)cc1 | Epidermal growth factor receptor (EGFR, Homo sapiens, UniProt P00533, L858R) | enzyme activity, inhibitor |  |  | IC50 | 0.092 µM |
| COC(=O)Cc1cc2c(cc1C(=O)c1ccccc1)OCO2 | Gria2/Glutamate receptor 3 | ion current, patch clamp |  |  | IC50 | 6.12 µM |
| CC[C@H]1CN([C@@H](CC)c2ccc(C(F)(F)F)cc2)[C@H](CC)CN1c1nc(=O)n(C)c2ccc(C#N)nc12 | DGKZ | enzyme activity, inhibitor, ADP detection |  |  | IC50 | 0.002 µM |

Excerpt of the above:
| SMILES | tested on | test | test system | conditions | quantity | result |
| --- | --- | --- | --- | --- | --- | --- |
| COc1ccc(CNC(=O)c2cnc3c(c(C)nn3C)c2Cl)cc1 | Malate dehydrogenase, mitochondrial (MDH2, Sus scrofa, UniProt P00346) | enzyme activity, reporter counter-screen |  | native enzyme | IC50 | > 63 µM |
| O=C(O)Cc1cc2c(cc1C(=O)c1ccccc1Br)OCO2 | Gria2/Glutamate receptor 3 | ion current, antagonist, patch clamp |  |  | IC50 | 4.57 µM |
